Experimental data of several laboratories.
A part holds a random share of what one study measured. “And” joins repeats or separate records; there may be more than shown.
Sequence of UniProt P24723 (whole entry, looked up): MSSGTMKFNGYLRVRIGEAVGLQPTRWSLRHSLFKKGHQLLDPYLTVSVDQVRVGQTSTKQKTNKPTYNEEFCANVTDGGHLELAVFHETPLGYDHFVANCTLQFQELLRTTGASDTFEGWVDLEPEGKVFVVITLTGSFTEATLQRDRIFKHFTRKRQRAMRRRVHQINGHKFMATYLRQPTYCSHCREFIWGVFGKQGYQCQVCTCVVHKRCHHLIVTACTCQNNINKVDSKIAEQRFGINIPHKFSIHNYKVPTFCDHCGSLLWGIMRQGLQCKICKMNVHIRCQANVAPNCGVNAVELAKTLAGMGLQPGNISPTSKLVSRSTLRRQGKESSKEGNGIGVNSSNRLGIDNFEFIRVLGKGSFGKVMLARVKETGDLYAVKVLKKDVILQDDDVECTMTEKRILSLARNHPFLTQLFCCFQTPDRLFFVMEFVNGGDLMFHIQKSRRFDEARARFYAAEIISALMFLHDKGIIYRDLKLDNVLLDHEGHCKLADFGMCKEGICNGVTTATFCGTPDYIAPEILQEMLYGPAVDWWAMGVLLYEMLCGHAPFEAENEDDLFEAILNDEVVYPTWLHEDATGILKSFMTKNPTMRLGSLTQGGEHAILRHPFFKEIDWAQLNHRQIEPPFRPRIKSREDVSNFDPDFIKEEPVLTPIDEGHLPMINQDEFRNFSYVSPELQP
Sequence of UniProt Q13163 (whole entry, looked up): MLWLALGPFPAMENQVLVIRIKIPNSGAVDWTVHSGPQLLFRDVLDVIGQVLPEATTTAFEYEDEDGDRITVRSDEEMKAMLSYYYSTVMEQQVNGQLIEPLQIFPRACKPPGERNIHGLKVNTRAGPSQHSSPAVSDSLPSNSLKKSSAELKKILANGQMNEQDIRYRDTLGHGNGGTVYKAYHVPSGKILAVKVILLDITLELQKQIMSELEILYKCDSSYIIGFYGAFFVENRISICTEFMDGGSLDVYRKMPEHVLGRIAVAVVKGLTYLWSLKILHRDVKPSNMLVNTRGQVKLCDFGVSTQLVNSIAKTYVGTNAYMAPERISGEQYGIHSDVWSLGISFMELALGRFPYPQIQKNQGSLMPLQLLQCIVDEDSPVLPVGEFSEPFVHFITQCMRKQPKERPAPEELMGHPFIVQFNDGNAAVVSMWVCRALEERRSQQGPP
Sequence of UniProt Q16816 (whole entry, looked up): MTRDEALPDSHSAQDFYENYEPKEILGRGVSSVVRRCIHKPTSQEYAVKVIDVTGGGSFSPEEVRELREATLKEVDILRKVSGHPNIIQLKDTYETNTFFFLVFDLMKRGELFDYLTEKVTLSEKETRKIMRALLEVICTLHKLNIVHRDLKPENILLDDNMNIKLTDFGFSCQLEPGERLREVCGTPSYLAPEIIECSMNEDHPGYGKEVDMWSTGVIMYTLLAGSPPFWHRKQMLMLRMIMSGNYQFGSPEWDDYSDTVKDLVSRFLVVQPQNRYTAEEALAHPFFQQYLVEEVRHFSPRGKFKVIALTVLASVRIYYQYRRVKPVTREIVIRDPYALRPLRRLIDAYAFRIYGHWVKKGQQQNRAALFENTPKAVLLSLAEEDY
Sequence of UniProt P53779 (whole entry, looked up): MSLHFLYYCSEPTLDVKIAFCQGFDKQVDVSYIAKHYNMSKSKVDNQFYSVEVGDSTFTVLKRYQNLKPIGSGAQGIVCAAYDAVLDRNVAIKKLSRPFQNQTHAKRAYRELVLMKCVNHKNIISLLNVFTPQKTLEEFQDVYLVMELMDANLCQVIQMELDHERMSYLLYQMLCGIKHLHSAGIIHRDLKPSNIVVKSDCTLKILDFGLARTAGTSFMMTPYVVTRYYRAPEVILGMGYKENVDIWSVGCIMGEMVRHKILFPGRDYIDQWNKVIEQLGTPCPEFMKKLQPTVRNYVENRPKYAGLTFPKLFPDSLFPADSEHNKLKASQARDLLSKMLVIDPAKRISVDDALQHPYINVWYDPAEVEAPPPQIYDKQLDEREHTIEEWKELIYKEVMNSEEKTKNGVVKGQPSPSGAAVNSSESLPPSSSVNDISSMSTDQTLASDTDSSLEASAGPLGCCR
Sequence of UniProt Q00534 (whole entry, looked up): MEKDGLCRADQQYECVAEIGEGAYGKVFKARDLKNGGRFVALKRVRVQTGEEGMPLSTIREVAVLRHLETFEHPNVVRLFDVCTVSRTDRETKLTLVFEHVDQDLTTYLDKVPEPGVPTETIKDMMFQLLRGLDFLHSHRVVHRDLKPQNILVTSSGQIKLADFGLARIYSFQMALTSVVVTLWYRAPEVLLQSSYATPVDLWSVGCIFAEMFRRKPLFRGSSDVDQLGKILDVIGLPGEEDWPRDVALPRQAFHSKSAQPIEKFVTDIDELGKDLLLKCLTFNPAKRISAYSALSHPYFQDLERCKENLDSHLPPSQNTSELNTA
Sequence of UniProt Q8N5S9 (whole entry, looked up): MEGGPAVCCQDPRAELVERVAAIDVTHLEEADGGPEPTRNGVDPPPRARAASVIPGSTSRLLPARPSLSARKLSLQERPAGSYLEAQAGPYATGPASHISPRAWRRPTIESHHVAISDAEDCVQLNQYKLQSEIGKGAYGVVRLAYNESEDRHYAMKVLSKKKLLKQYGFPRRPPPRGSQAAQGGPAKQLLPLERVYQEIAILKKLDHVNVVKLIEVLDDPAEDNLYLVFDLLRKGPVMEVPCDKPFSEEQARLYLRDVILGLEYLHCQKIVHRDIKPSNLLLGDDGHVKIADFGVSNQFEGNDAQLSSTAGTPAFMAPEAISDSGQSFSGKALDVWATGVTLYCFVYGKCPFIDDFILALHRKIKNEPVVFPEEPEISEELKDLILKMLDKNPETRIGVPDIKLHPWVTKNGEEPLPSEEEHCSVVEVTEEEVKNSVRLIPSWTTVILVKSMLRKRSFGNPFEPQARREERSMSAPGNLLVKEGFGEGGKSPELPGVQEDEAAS
Sequence of UniProt Q00526 (whole entry, looked up): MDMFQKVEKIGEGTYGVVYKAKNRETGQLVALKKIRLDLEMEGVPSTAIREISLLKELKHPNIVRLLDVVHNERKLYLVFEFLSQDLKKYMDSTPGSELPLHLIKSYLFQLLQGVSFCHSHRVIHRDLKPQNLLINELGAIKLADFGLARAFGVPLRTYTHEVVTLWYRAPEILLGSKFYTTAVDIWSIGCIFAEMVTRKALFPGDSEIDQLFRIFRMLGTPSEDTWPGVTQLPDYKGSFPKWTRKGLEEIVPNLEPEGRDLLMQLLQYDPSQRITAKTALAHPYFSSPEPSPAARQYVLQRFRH
Sequence of UniProt Q8NG66 (whole entry, looked up): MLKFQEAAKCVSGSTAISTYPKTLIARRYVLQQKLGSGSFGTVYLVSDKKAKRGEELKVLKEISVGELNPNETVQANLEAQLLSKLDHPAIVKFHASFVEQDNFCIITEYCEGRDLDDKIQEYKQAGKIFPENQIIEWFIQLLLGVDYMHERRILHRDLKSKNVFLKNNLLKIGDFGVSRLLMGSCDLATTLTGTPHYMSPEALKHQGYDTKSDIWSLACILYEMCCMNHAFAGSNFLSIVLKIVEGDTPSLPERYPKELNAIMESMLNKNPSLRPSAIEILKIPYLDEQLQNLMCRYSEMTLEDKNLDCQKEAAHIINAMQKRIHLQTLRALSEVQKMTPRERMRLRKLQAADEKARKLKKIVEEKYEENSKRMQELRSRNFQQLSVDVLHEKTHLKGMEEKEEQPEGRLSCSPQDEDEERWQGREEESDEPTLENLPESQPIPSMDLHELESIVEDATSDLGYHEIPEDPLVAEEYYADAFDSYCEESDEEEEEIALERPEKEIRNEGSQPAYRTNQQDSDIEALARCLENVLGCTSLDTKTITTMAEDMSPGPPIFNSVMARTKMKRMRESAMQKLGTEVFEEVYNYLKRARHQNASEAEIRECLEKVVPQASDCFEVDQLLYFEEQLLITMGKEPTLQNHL
Sequence of UniProt Q9BYT3 (whole entry, looked up): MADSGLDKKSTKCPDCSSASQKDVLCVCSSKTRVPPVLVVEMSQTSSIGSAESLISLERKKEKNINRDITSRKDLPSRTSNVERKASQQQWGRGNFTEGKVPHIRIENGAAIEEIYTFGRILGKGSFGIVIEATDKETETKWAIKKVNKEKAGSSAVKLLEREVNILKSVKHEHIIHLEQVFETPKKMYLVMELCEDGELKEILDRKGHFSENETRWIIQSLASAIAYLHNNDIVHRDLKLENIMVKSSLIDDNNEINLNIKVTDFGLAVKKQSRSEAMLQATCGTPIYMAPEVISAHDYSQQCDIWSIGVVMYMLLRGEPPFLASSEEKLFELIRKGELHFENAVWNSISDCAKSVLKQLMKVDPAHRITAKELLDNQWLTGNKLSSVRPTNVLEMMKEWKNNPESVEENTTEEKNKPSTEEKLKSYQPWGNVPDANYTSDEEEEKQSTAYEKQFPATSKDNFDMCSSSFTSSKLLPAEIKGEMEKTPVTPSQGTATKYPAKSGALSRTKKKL

Sample 1
Cell line: mouse MPNST tumor cells
Technique: high-content nuclear imaging
Measured: cell number
Tested at: 10 µM
Time: 12 h
Notes: mean of 2 replicates
Baseline: plate mean
Reading: higher = more cells
Endpoint: nuclei count
Structure (SMILES) = NCC[C@H](O)C(=O)N[C@@H]1C[C@H](N)[C@@H](O[C@H]2O[C@H](CN)[C@@H](O)[C@H](O)[C@H]2O)[C@H](O)[C@H]1O[C@H]1O[C@H](CO)[C@@H](O)[C@H](N)[C@H]1O; value = 0.197 z-score
Structure (SMILES) = N#Cc1c[nH]c2c(C(=O)N3CCN(CCc4ccc(F)cc4)CC3)cccc12; value = 0.072 z-score
Structure (SMILES) = NC(C(=O)O)c1cc(O)ccc1Cl (centres unmarked); value = -0.715 z-score
Structure (SMILES) = O=C(O)CC1CC(c2ccccc2)=NO1 (centres unmarked); value = 2.01 z-score
Structure (SMILES) = Cc1cccc(-c2[nH]ncc2-c2ccnc3ccccc23)n1; value = -1.76 z-score
Structure (SMILES) = CC(C)[C@H](CO)Nc1nc(Nc2cc(N)cc(Cl)c2)c2ncn(C(C)C)c2n1; value = -1.89 z-score
Structure (SMILES) = CC(C)NCC(O)COc1ccc(CCOCC2CC2)cc1 (centres unmarked); value = 1.64 z-score

Sample 2
Species: mouse
Medium: microsomes or S9
Tested at: 2 µM
Time: 0.5 h
Endpoint: remaining compound
Structure (SMILES) = CCC(CO)NCc1ccc(OCc2cccs2)cc1 (centres unmarked); value = 1.33%
Structure (SMILES) = CC(C)=CCc1c2c(c3occ(-c4ccc(O)c(O)c4)c(=O)c3c1O)C=CC(C)(C)O2; value = 34.2%
Structure (SMILES) = COc1cc(=O)[nH]cc1C(=O)N[C@@H]1CCO[C@H]1c1ccc(Cl)cc1; value = 51.9%
Structure (SMILES) = COc1cc2c(cc1OC)/C(=N\c1ccccc1)N(Cc1ccccc1F)CC2; value = 0.245%
Structure (SMILES) = CCc1nc(Cl)c2c3c(sc2n1)CC(C)CC3 (centres unmarked); value = 2.43%

Sample 3
Target: panel of 300 human kinases
Tested at: 0.5 µM
Reading: higher = more selective
Endpoint: Gini score
Compound = CCN(CC)C(=O)c1ccc(Nc2nc(OCC3CCCCC3)c3[nH]cnc3n2)cc1; value = 0.56
Compound = Nc1cccc(-c2cc3c(Oc4cccc(O)c4)ncnc3[nH]2)c1; value = 0.62
Compound = NC(=O)c1ccc2nc(-c3ccc(Oc4ccc(Cl)cc4)cc3)[nH]c2c1; value = 0.63
Compound = O=C(Nc1nc2ccccc2n1CCN1CCOCC1)c1cccc([N+](=O)[O-])c1; value = 0.7
Compound = O=C1c2ccccc2-c2n[nH]c3cccc1c23; value = 0.58
Compound = COc1cc2c(cc1OC)-c1[nH]nc(Nc3cccc(F)c3)c1C2; value = 0.66

Sample 4
Structure (SMILES): COc1ccc2cc(OCC3(C(=O)O)CN(C(=O)c4ccc(F)cc4)C3)ccc2c1
Effect on: cell-free assay
Technique: competition with immobilised ligand
Tested at: 1 µM
Endpoint: remaining binding
target = Serine/threonine-protein kinase NIM1 (NIM1K, Homo sapiens, UniProt Q8IY84); value = 100%
target = Serine/threonine-protein kinase 33 (STK33, Homo sapiens, UniProt Q9BYT3); value = 98%
target = Mitogen-activated protein kinase kinase kinase 9 (MAP3K9, Homo sapiens, UniProt P80192); value = 100%
target = Tyrosine-protein kinase ABL1, phosphorylated (ABL1, Homo sapiens, UniProt P00519, T315I); value = 84%
target = Epidermal growth factor receptor (EGFR, Homo sapiens, UniProt P00533); value = 100%
target = Ribosomal protein S6 kinase beta-1 (RPS6KB1, Homo sapiens, UniProt P23443); value = 100%
target = Phosphatidylinositol 4,5-bisphosphate 3-kinase catalytic subunit alpha isoform (PIK3CA, Homo sapiens, UniProt P42336, C420R); value = 100%
target = Receptor tyrosine-protein kinase erbB-2 (ERBB2, Homo sapiens, UniProt P04626); value = 100%
target = Hormonally up-regulated neu tumor-associated kinase (HUNK, Homo sapiens, UniProt P57058); value = 100%
target = Dual specificity mitogen-activated protein kinase kinase 5 (MAP2K5, Homo sapiens, UniProt Q13163); value = 93%
target = Serine/threonine-protein kinase D1 (PRKD1, Homo sapiens, UniProt Q15139); value = 96%
target = Protein kinase C eta type (PRKCH, Homo sapiens, UniProt P24723); value = 100%
target = Cyclin-dependent kinase 3 (CDK3, Homo sapiens, UniProt Q00526); value = 83%
target = Proto-oncogene tyrosine-protein kinase receptor Ret (RET, Homo sapiens, UniProt P07949); value = 100%
target = Ephrin type-B receptor 4 (EPHB4, Homo sapiens, UniProt P54760); value = 95%
target = Atypical kinase COQ8B, mitochondrial (COQ8B, Homo sapiens, UniProt Q96D53); value = 100%
target = Mitogen-activated protein kinase 7 (MAPK7, Homo sapiens, UniProt Q13164); value = 100%
target = Tyrosine-protein kinase ABL1, non-phosphorylated (ABL1, Homo sapiens, UniProt P00519, Q252H); value = 90%
target = Cyclin-dependent kinase 4, with cyclin D1 (CDK4, Homo sapiens, UniProt P11802); value = 100%
target = Calcium/calmodulin-dependent protein kinase kinase 1 (CAMKK1, Homo sapiens, UniProt Q8N5S9); value = 91%
target = Mitogen-activated protein kinase 10 (MAPK10, Homo sapiens, UniProt P53779); value = 85%
target = Misshapen-like kinase 1 (MINK1, Homo sapiens, UniProt Q8N4C8); value = 100%

Sample 5
Structure (SMILES): O=C(Nc1cnn(-c2csc(C(=O)NC3COC3)c2)c1)Nc1ccccc1Cl
Effect on: enzyme activity
Tested at: 5 µM
Baseline: untreated control
Endpoint: remaining activity
target = Ribosomal protein S6 kinase alpha-5 (RPS6KA5, Homo sapiens, UniProt O75582); value = 87.7%
target = Dual specificity tyrosine-phosphorylation-regulated kinase 1B (DYRK1B, Homo sapiens, UniProt Q9Y463); value = 86.6%
target = Protein kinase C alpha type (PRKCA, Homo sapiens, UniProt P17252); value = 100%
target = Phosphorylase b kinase gamma catalytic chain, skeletal muscle/heart isoform (PHKG1, Homo sapiens, UniProt Q16816); value = 100%
target = Cyclin-dependent kinase 6, with cyclin D1 (CDK6, Homo sapiens, UniProt Q00534); value = 95.1%
target = Serine/threonine-protein kinase Nek11 (NEK11, Homo sapiens, UniProt Q8NG66); value = 136%

Other studies, line by line
Compound = CC1=C(/C=C/C(C)=C/C=C/C(C)=C/C(=O)O)C(C)(C)CCC1; cell line = HuT78; assay = trypan blue; conditions = concentration not given, unit not given; scale = baseline: vehicle; endpoint = viability; value = 0.988 and 0.94 and 0.971

A few entries again (sample 4):
target = Atypical kinase COQ8B, mitochondrial (COQ8B, Homo sapiens, UniProt Q96D53); value = 100%
target = Epidermal growth factor receptor (EGFR, Homo sapiens, UniProt P00533); value = 100%
target = Hormonally up-regulated neu tumor-associated kinase (HUNK, Homo sapiens, UniProt P57058); value = 100%
target = Cyclin-dependent kinase 3 (CDK3, Homo sapiens, UniProt Q00526); value = 83%
target = Receptor tyrosine-protein kinase erbB-2 (ERBB2, Homo sapiens, UniProt P04626); value = 100%
target = Proto-oncogene tyrosine-protein kinase receptor Ret (RET, Homo sapiens, UniProt P07949); value = 100%
